Experimental data collected from several papers.
A part holds a random share of what one study measured. Values joined by “and” are separate records of one study, mostly repeats; a detail may differ.

Set 1
Target: Membrane-associated tyrosine- and threonine-specific cdc2-inhibitory kinase (PKMYT1, Homo sapiens, UniProt Q99640)
Sequence of UniProt Q99640 (whole entry, looked up): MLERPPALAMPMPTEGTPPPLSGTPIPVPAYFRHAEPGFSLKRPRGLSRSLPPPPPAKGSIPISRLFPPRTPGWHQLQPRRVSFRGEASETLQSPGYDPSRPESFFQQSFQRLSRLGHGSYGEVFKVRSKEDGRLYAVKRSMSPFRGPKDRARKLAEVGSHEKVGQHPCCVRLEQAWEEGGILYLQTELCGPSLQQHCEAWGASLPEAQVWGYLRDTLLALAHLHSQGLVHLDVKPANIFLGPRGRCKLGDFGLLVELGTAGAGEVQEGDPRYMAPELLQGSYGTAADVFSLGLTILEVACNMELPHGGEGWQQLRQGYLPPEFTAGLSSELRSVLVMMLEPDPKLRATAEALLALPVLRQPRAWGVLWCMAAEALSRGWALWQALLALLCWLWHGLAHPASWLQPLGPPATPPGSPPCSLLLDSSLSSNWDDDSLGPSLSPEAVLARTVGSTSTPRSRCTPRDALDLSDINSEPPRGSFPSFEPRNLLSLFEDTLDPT
Read-out: binding
Method: HTRF
`Cc1ccc(O)c(C)c1-c1cnc2[nH]c(-c3cnc(N4CCC(CN5CCN(c6ccc(C(=O)NC7CCC(=O)NC7=O)c(F)c6)CC5)CC4)nc3)cc2c1C#N` (racemic) has an IC50 of 4.3 nM.
The IC50 of `Cc1ccc(O)c(C)c1-c1cnc2[nH]c(-c3cnc(N4CCC(CN5CCN(c6ccc7c8c(cccc68)C(=O)N7C6CCC(=O)NC6=O)CC5)CC4)nc3)cc2c1C#N` (racemic) is reported as 8.2 nM.
`Cc1ccc(O)c(C)c1-c1cnc2[nH]c(-c3cnc(N4CCC(CN5CCN(c6ccc(N7CCC(=O)NC7=O)cc6F)CC5)CC4)nc3)cc2c1C#N` has an IC50 of 3.8 nM.

Set 2
Compound: COc1cc(C(=O)OCCCN2CCCN(CCCOC(=O)c3cc(OC)c(OC)c(OCc4ccc([N+](=O)[O-])cc4)c3)CC2)cc(OC)c1OC
Host: male CD-1 mouse
Route: subcutaneous
Dose: dose not given
It gave 129 ng/mL for tissue concentration (trigeminal ganglion; 4.5 h).
dorsal root ganglia; 4.5 h — tissue concentration: 301 ng/mL.
The tissue concentration was 159 ng/mL (trigeminal ganglion; 1.5 h).

Single results of other studies
For `C=CCN1C(=O)C(O)(C(=O)O)Oc2cc(F)ccc21` (stereo not drawn), the inhibition was 20.1% (Arabidopsis thaliana; root length; Col-0, seedlings; 25 µg/mL; relative to: water control).
`Cn1cc(-c2cccc(CN3CCC4(CC3)COc3c4ccc4c3CN([C@H]3CCC(=O)NC3=O)C4=O)c2)cn1` gave a Vss of 8.31 L/kg and 8.34 L/kg and 7.8 L/kg (cynomolgus monkey; intravenous, 1 mg/kg).
`CCCN1C(=O)C(O)(C(=O)O)Oc2cc(F)ccc21` (stereo not drawn) gave an inhibition of 5.1% and 4.7% and 4.6% (Glycine max; fresh weight; soil surface spray, 150 g ai/ha, 21 days, pre-emergence crop safety).

Repeated from above (set 2):
dorsal root ganglia; 4.5 h — tissue concentration: 301 ng/mL.
